Experimental data pooled from the literature.
A part holds a random share of what one study measured. Positions count from the first letter of the parent shown.

Sample 1
Target: Ras GTPase-activating protein-binding protein 1, full length (G3BP1, Homo sapiens, UniProt Q13283)
Sequence of UniProt Q13283 (whole entry, looked up): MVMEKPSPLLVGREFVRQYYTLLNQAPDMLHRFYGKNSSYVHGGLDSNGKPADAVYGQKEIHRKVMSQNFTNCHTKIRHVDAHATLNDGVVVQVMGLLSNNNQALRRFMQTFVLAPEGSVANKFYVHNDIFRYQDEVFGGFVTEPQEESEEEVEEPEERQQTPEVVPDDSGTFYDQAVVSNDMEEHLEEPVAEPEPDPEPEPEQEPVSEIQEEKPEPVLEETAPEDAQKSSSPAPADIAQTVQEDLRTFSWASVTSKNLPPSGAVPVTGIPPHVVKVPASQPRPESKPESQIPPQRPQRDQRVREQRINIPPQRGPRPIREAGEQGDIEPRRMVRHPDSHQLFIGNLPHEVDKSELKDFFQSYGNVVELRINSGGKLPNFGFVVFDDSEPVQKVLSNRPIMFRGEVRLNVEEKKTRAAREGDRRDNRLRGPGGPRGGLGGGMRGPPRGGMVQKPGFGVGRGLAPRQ
Technique: RNA Bind-n-Seq
Form: RNA
Medium: in vitro
Concentration: 200 nM
Setting: whole 134-nt RNA, ends assumed
Together with: 150 mM KCl
Reference: input library
Direction: higher = stronger binding
Quantity: log2 enrichment
Sequence = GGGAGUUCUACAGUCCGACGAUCUCCUCAAGUCCUGUGCUACACAUCGUAUGUACCGAAUCGGAGGAAAGGUGGAAAGUAUUAUGUUACGCCGUUCGGAUCUGCACUUCCAGCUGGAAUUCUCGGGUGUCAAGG; value = -0.742
Sequence = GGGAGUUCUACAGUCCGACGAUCCAAGUCCUGUGCUACACAUCGUAUGUACCGAAUCGGUUUUUUUGGAAAGGUUUGGAAAGUAUUAUGUUACGCCGUUCGGAUCUGCACUUCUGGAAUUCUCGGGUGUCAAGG; value = -1.21
Sequence = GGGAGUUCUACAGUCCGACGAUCCUCAAGUCCUGUGCUACACAUCGUAUGUACCGAAUCGGUUUUUUUGGUGGUGGAAAGUAUUAUGUUACGCCGUUCGGAUCUGCACUUCCAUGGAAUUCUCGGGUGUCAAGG; value = -0.384
Sequence = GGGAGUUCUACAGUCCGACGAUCUGGGCCUGGUGGCAUGCGGGGAGGAAGAGGUGGCCUCAUGGAUCGUGGUGGUCCCGGUGGAAUGUUCAGAGGUGGCCGUGGUGGAGACAGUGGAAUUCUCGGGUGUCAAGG; value = 0.832
Sequence = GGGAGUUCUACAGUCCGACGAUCUGGCCCUGGUGGCAUGCGGGGAGGAAGAGGUGGCCUCAUGGAUCGUGGUGGUCCCGGUGGAAUGUUCAGAGGUGGCCGUGGUGGCGACAGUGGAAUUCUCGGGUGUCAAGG; value = 0.109
Sequence = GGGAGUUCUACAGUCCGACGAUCUCCUUUCUGUCAUUUUACACCCACAGUUGAAGAUUCCUGUCUCUGGAUCCAAAUCAGAGGGCCUUCUCUACGUCCACUCAUCCAGAGGUGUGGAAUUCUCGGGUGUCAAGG; value = -1.55
Sequence = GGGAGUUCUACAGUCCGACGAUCUAACUUUAGAGGAGGAUCUGAUGGAUAUGGCAGUGGACGUGGAUUUGGGGAUGGCAAUAAUGGGUAUGGAGGAGGACCUGGAGGUGGCAAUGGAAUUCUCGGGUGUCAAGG; value = 0.24
Sequence = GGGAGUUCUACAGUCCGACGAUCUCAAGUCCUGUGCUACACAUCGUAUGUACCGAAUCGGGUUUGGUUUGGUUUGGGAAAGUAUUAUGUUACGCCGUUCGGAUCUGCACUUCCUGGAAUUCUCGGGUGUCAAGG; value = -0.774
Sequence = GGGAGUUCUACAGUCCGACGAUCAGUCCUGUGCUACACAUCGUAUGUACCGAAUCGGGUUUGGGAAAAAAAGGGUUUGGGAAAGUAUUAUGUUACGCCGUUCGGAUCUGCACUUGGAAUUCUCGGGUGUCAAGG; value = 0.0242
Sequence = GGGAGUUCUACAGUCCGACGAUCCUCAAGUCCUGUGCUACACAUCGUAUGUACCGAAUCGGUUGGGUUGGGGUUGGAAAGUAUUAUGUUACGCCGUUCGGAUCUGCACUUCCAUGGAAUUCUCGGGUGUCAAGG; value = -0.152
Sequence = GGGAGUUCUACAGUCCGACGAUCCCUGUGCUACACAUCGUAUGUACCGAAUCGGAAAAAAAGGAAAAAAAGGAAAAAAAGGGGAAAGUAUUAUGUUACGCCGUUCGGAUCUGCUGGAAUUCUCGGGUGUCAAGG; value = -0.897
Sequence = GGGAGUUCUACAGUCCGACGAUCUGGCCCUGGUGGCAUGCGGGGAGGAAGAGGUGGCCUCAUGGAUCGUGGUGGUCCCGGUGGAAUGUUCAGAGGUGGCCGUGGUGGAGAGAGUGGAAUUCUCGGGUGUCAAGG; value = 0.193
Sequence = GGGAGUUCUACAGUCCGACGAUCAGUCCUGUGCUACACAUCGUAUGUACCGAAUCGGGGAGGGGAAAGGGGAAAAAGGGGAAAGUAUUAUGUUACGCCGUUCGGAUCUGCACUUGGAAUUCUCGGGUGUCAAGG; value = 0.445
Sequence = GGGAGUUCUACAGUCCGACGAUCUAACUUUAGAGGAGGAUCUGAUGGAUUUGGCAGUGGACGUGGAUUUGGGGAUGGCUAUAAUGGGUAUGGAGGAGGACCUGGAGGUGGCAAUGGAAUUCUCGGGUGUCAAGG; value = 0.297

Sample 2
Target: Sal-like protein 4, full length isoform A (SALL4, Homo sapiens, UniProt Q9UJQ4, residues 1-1053)
Sequence of UniProt Q9UJQ4 (whole entry, looked up): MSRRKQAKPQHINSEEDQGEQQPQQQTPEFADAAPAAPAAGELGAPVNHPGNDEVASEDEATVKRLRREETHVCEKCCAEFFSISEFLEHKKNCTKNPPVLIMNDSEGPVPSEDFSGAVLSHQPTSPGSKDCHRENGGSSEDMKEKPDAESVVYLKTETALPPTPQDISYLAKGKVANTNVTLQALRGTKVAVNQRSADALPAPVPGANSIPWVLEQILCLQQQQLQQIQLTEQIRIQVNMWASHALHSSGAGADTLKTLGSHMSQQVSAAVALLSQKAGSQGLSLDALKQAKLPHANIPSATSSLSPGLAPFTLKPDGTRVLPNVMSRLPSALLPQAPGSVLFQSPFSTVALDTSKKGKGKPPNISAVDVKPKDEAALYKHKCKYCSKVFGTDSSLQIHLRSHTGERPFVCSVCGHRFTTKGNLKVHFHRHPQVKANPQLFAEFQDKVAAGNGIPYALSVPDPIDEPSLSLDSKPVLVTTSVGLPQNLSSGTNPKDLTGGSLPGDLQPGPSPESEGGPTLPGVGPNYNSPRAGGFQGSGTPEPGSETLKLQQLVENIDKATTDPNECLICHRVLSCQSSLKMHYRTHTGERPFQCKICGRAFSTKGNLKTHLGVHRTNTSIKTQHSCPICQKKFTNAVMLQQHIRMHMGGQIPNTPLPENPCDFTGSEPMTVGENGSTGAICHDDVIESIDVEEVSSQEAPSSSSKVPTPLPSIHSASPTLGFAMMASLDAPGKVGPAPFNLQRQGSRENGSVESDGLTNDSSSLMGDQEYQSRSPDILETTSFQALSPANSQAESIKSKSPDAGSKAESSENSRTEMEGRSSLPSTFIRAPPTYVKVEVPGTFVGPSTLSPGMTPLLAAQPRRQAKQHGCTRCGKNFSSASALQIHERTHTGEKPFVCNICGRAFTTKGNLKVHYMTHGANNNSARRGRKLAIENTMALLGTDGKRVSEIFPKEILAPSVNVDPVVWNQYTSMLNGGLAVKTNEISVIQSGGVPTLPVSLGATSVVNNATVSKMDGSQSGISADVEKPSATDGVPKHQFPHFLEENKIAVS
Technique: universal PBM
Form: double-stranded DNA, one strand shown
Medium: in vitro
Concentration: 600 nM
Setting: 8-mer, flanks averaged, mean of replicates
Direction: higher = stronger binding
Quantity: E-score
Sequence = ACAACGAA; value = 0.141
Sequence = ACAATTAT; value = 0.416
Sequence = AAAGCGAC; value = -0.103
Sequence = CCCGCAAC; value = -0.133
Sequence = GAGCGCAA; value = -0.214
Sequence = AAACTCGA; value = -0.0187
Sequence = ACTGGTGC; value = -0.251
Sequence = ATAGTGGG; value = 0.0224
Sequence = CAAGGGTC; value = -0.239
Sequence = GAAGTCAA; value = 0.055
Sequence = GGTACACA; value = 0.00573
Sequence = AGCATTCC; value = -0.0379
Sequence = CGGTCCCA; value = -0.305
Sequence = CCACACAA; value = -0.0286
Sequence = ATTGGAAG; value = 0.117
Sequence = ATGTTTTC; value = 0.225
Sequence = AAGGACAA; value = 0.0799
Sequence = ATAGTGAC; value = 0.0718
Sequence = AGGTCCCC; value = -0.369
Sequence = CACTAGGG; value = -0.239
Sequence = CCAACGGC; value = -0.331
Sequence = CCGAATAC; value = 0.0228
Sequence = CTTCGCGA; value = -0.15
Sequence = GGACGCCA; value = -0.309

Sample 3
Target: CCNE2, cyclin fold, Cln2 fusion (human)
Technique: yeast growth competition, sequencing
Medium: yeast
Setting: strong parent motif
Reference: not given
Direction: higher = stronger binding
Quantity: normalised enrichment score
Starting sequence: WEE1 docking peptide (human); HKTFRKLRLFDTP; partner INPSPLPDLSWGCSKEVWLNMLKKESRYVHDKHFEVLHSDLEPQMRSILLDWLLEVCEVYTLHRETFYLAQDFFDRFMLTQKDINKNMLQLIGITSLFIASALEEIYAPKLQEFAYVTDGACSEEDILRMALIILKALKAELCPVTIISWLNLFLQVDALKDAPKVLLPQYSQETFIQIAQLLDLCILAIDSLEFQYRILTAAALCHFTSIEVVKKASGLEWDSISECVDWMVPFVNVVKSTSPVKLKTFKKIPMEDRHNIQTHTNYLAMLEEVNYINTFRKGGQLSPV
Change = HKTSRKLRLFDTP [F4S]; value = 0.744
Change = HKTFRKKRLFDTP [L7K]; value = 0.885
Change = HKTFFKLRLFDTP [R5F]; value = 0.463
Change = HKTFRKLRLTDTP [F10T]; value = 0.541
Change = HKTFRKLRLFDLP [T12L]; value = 0.665
Change = HKTFRKLRLFDWP [T12W]; value = 1.22
Change = HKTFRKMRLFDTP [L7M]; value = -0.376
Change = HKTFEKLRLFDTP [R5E]; value = 1.38
Change = HKTFRKLNLFDTP [R8N]; value = 0.212
Change = HKTFRRLRLFDTP [K6R]; value = 0.948
Change = HKTFRKLSLFDTP [R8S]; value = 1.14
Change = HKTFRKLRLFDTQ [P13Q]; value = 0.212
Change = HKTFRKLRLHDTP [F10H]; value = 0.65
Change = HFTFRKLRLFDTP [K2F]; value = -0.0596
Change = HKTFRKLRLFDNP [T12N]; value = 1.43
Change = HKTFRKLRLLDTP [F10L]; value = 0.446
Change = HKTFSKLRLFDTP [R5S]; value = 0.583
Change = HKTARKLRLFDTP [F4A]; value = 1.09
Change = HKTFRKLRLFDTS [P13S]; value = 1.02
Change = HRTFRKLRLFDTP [K2R]; value = 1.03
Change = HKTFGKLRLFDTP [R5G]; value = 0.276
Change = HKTFRKLRCFDTP [L9C]; value = 0.754
Change = HKTFRKLRLFDTY [P13Y]; value = 1.11
Change = HKTFRKLRSFDTP [L9S]; value = 0.823
Change = QKTFRKLRLFDTP [H1Q]; value = 1.48

Sample 4
Target: Histone acetyltransferase KAT6A, winged helix 2, GST fusion (KAT6A, Homo sapiens, UniProt Q92794, residues 85-181)
Technique: protein binding microarray
Form: double-stranded DNA, one strand shown
Medium: in vitro
Concentration: not given
Setting: 8-mer, flanks averaged, mean of 2 arrays, mostly near background
Reference: not given
Direction: higher = stronger binding
Quantity: E-score
Construct (chain): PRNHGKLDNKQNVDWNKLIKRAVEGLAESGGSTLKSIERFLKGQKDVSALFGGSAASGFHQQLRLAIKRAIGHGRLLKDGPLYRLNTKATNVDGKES
Sequence = AGCACCAA; value = -0.0244
Sequence = GTCATCTA; value = -0.0387
Sequence = AAGGAATC; value = -0.0231
Sequence = ACCTATGC; value = -0.173
Sequence = GCCTTCTA; value = -0.156
Sequence = ACATCAAC; value = 0.138
Sequence = GAGAGTGA; value = 0.0521
Sequence = AACTAAAG; value = 0.0475
Sequence = ACTCTCGG; value = 0.146
Sequence = AAGAGTCG; value = -0.0329
Sequence = GTATAGGA; value = -0.215
Sequence = GAACCCCA; value = -0.0947
Sequence = CCGACGTA; value = -0.105
Sequence = CCTTAGGC; value = -0.207
Sequence = GCGTTTAA; value = -0.139
Sequence = GGGGCATA; value = -0.0241
Sequence = ACTTTCCT; value = -0.184

Sample 5
Target: Prothrombin, mature alpha-thrombin (F2, Homo sapiens, UniProt P00734)
Technique: aptamer microarray, sandwich
Form: DNA with 2'F-ANA
Medium: in vitro
Concentration: 200 nM
Setting: whole 15-mer aptamer, many near background
Together with: Cy3 exosite-II aptamer, 400 nM
Direction: higher = stronger binding
Quantity: mean fluorescence intensity
Sequence: GGTTGGTGTGGTTGG
Modification = 2'F-ANA at 2 5 7 12 15; value = 156 a.u.
Modification = 2'F-ANA at 2 3 4 5 6 11 12 15; value = 131 a.u.
Modification = 2'F-ANA at 3 4 5 8 10 11 14; value = 86.6 a.u.
Modification = 2'F-ANA at 2 4 6 7 9 10 12 14 15; value = 65.7 a.u.
Modification = 2'F-ANA at 1 3 10 11 13 14; value = 120 a.u.
Modification = 2'F-ANA at 1 4 6 7 9 12 13 14 15; value = 54.9 a.u.
Modification = 2'F-ANA at 2 3 4 5 7 8 10 12 14 15; value = 51.3 a.u.
Modification = 2'F-ANA at 2 4 5 8 9 11 12 13 14; value = 43.2 a.u.
Modification = 2'F-ANA at 1 2 4 6 8 10 11 13 15; value = 51.5 a.u.
Modification = 2'F-ANA at 3 4 6 8 9 11 14 15; value = 219 a.u.
Modification = 2'F-ANA at 1 3 5 7 8 9 11 13 15; value = 54.7 a.u.
Modification = 2'F-ANA at 1 2 3 4 6 11 12 13 14 15; value = 66.3 a.u.
Modification = 2'F-ANA at 4 5 9 13 14; value = 46.1 a.u.
Modification = 2'F-ANA at 2 4 7 8 9 11 13 14; value = 92.4 a.u.
Modification = 2'F-ANA at 1 3 6 9 11 12 13 14; value = 98 a.u.
Modification = 2'F-ANA at 1 2 5 6 8 9 12 13; value = 92.3 a.u.
Modification = 2'F-ANA at 1 2 3 6 7 8 11 12; value = 382 a.u.
Modification = 2'F-ANA at 2 4 8 9 11 13 14; value = 80 a.u.

Sample 6
Target: ABI1, truncated, D143A, DHFR fusion (Arabidopsis thaliana)
Technique: DHFR PCA, deep sequencing
Medium: yeast
Setting: methotrexate growth selection, single substitutions
Together with: (+)-ABA 0.0091 µM
Reference: wild-type fitted maximum
Direction: higher = stronger binding
Quantity: relative binding score
Starting sequence: PYL1, truncated, DHFR fusion (Arabidopsis thaliana); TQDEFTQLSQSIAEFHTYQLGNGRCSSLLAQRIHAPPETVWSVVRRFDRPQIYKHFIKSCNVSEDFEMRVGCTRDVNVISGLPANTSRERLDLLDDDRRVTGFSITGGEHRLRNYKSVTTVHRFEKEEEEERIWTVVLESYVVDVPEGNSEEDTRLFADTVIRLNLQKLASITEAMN
Change = I133R; value = 10.8%
Change = L20V; value = 60.4%
Change = E89L; value = 2.97%
Change = V143E; value = -0.0326%
Change = V62Q; value = -7.06%
Change = A35S; value = -1.58%
Change = K58G; value = -1.04%
Change = R90F; value = 1.13%
Change = V40M; value = -3.26%
Change = W41T; value = 0.155%
Change = L29N; value = -0.177%
Change = S87M; value = 38.4%
Change = G81P; value = 35.7%
Change = L138R; value = 4.45%

Some of these lines once more (sample 4):
Sequence = GAGAGTGA; value = 0.0521
Sequence = AACTAAAG; value = 0.0475
Sequence = ACTCTCGG; value = 0.146
Sequence = AAGAGTCG; value = -0.0329
Sequence = GTATAGGA; value = -0.215
Sequence = GAACCCCA; value = -0.0947
Sequence = CCGACGTA; value = -0.105
Sequence = CCTTAGGC; value = -0.207
Sequence = GCGTTTAA; value = -0.139
